Measurements gathered from unrelated publications.
Every numbered part comes from another study and shows a few of its results, in no order. Positions count from the first letter of the parent shown.

Block 1
Target: CCNB3, cyclin fold, Cln2 fusion (human)
Method: yeast growth competition, sequencing
Medium: yeast
Setting: strong parent motif
Reference: not given
Direction: higher = stronger binding
Starting sequence: E2F1 docking peptide (human); PPVKRRLDFETDH; partner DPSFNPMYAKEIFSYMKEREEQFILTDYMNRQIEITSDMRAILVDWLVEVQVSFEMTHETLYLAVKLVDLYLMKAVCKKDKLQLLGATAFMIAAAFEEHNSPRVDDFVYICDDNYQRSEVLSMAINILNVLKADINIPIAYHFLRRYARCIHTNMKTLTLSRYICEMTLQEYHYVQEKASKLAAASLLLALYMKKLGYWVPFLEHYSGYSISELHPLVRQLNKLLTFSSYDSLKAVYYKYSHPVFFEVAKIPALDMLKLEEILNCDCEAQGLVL
Variant | normalised enrichment score
PPVIRRLDFETDH [K4I] | 1.12
PLVKRRLDFETDH [P2L] | 1.6
PPVKRRLDFESDH [T11S] | 2.81
PNVKRRLDFETDH [P2N] | 2.5
PPLKRRLDFETDH [V3L] | 1
PPVKRRLDFETNH [D12N] | 3.04
PPVKRRLDFDTDH [E10D] | 3.32
PPRKRRLDFETDH [V3R] | 0.292
PPVKRRLDFMTDH [E10M] | 1.36
PPVKRRLDVETDH [F9V] | 0.14

Block 2
Target: Histone acetyltransferase KAT6A, both winged helices, GST fusion (KAT6A, Homo sapiens, UniProt Q92794, residues 1-181)
Method: protein binding microarray
Molecule type: double-stranded DNA, one strand shown
Medium: in vitro
Tested at: not given
Setting: 8-mer, flanks averaged, mean of 2 arrays, mostly near background
Reference: not given
Direction: higher = stronger binding
Residues (chain): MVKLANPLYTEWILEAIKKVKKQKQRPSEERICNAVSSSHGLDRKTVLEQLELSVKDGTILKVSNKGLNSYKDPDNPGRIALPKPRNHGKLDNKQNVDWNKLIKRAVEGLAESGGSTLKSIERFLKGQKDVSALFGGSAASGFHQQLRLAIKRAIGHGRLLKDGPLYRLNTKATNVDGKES
Sequence | E-score
GCGGCTAA | 0.307
CACGACAC | -0.024
CAGCAGCA | -0.13
GAGTCGAC | 0.0682
AGGTACGC | 0.134
GCCTCGTA | -0.0464
GCGGTCCC | 0.195
CTTTACTA | -0.0398

Mixed results
Molecule | target or system | test | test system | setting | how to read | measurement | value
KRT8 (Homo sapiens, UniProt P05787) | KRT10 (Homo sapiens, UniProt P13645) | cross-linking MS |  | hits only |  | interaction screen | cross-linked
PhoQ, residues 284 288 289 292 302 303 SCCLKL | PhoP, residues 12 14 15 18 19 ICWRQ (Escherichia coli, UniProt P23836) | Sort-seq, measured: YFP reporter | E. coli | PhoQ-PhoP variant library, added: 10 µM Mg2+ | reference: high Mg2+ state, higher = stronger signaling | fold induction | 3.17

Excerpt of the above (block 1):
Variant | normalised enrichment score
PPVIRRLDFETDH [K4I] | 1.12
